{"data": "Published values gathered from unrelated publications", "note": "A part holds a random share of what one study measured. Positions count from the first letter of the parent shown."}
{"data": "Series 1", "target": "ABI1, truncated, D143A, DHFR fusion (Arabidopsis thaliana)", "technique": "DHFR PCA, deep sequencing", "matrix": "yeast", "setting": "methotrexate growth selection, single substitutions", "together with": "(+)-ABA 0.0091 µM", "baseline": "wild-type fitted maximum", "reading": "higher = stronger binding", "parent": "PYL1, truncated, DHFR fusion (Arabidopsis thaliana); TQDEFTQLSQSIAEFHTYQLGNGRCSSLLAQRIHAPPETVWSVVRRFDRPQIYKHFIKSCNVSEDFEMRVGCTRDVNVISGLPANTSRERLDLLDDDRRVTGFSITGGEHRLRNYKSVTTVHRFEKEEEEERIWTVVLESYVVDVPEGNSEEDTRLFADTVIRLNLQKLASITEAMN; partner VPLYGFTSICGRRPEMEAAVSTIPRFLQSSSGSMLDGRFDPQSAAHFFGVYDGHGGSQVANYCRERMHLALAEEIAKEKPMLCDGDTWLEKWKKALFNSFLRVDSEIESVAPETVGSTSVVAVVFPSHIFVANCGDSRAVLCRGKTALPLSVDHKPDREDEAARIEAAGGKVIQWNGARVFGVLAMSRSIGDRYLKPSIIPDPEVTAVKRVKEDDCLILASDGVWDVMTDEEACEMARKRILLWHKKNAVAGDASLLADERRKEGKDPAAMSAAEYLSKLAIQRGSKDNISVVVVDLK"}
{"Change": "S11Y", "relative binding score [%]": 28.4}
{"Change": "S27K", "relative binding score [%]": -4.38}
{"Change": "L93I", "relative binding score [%]": 56.2}
{"Change": "I162S", "relative binding score [%]": -1.43}
{"Change": "H34V", "relative binding score [%]": 1.6}
{"Change": "V70F", "relative binding score [%]": -1.65}
{"data": "Series 2", "target": "RNA binding protein fox-1 homolog 2, RRM domain, GST-SBP tag (RBFOX2, Homo sapiens, UniProt O43251-10, residues 100-194)", "technique": "RNA Bind-n-Seq", "molecule type": "RNA", "matrix": "in vitro", "concentration": "365 nM", "setting": "natural RNA segment, single round, ends assumed", "baseline": "no-protein control", "reading": "higher = stronger binding", "shared flanks, not repeated": "GGGAGUUCUACAGUCCGACGAUC … UGGAAUUCUCGGGUGCCAA", "Target sequence (chain)": "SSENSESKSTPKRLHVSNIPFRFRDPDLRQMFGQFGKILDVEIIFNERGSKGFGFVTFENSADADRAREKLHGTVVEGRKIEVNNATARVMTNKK"}
{"Sequence": "CACACAAUUGGAUAGUGACAUAGCUAGAGCGCAGAGUUCCUGAUUCCAAGUCACCUGUGCUUUCUGGGACCAAAGAAUGGGCACCUGCUGGAGUCCGGGCAGAGCUUUCU", "RBNS enrichment (R)": 0.326}
{"Sequence": "UUCCACAUUACAAGUUGAUGUUAUAGGUGGGGGCUGGAAUUGUUGCCCUGGAUGUGGGGACCAAGGUACAAUCUAACCAUGGGCCCCCACAAGGCUUCCUGAAAUCAAAU", "RBNS enrichment (R)": 1.45}
{"Sequence": "UUAUUCAUACAAAAAAAUGAGUUGAUGAUGGAAAAGCAAGUCAUAAUCAUCUAAUUGUUUUUGUCUAGGUCGAGAAUGAAUGUUAGCUGAUGAAAUAAACCCUGACAAGG", "RBNS enrichment (R)": 0.528}
{"Sequence": "CGCUGCGUGCCAUCACUCAACCAUAACACUUGAUGCCGUUUCUUUCAAUAUUUAUUUCCAGAGUCCGGAGGCAGCAGACACGCCCUCUUAGUAGGGACUUAAUGGGCCGG", "RBNS enrichment (R)": 0.282}
{"Sequence": "UCCCAAACUAGUGCAUGUAUAAAGUGGGAGAGCAGAGGGGGUUAAUAUGUAGAUGGCCAACCGACUUUUUAAUAUUUUGUAAAUAAAUUGGGAUUCUGUGUGUCCUCUGU", "RBNS enrichment (R)": 45.1}
{"Sequence": "CUCAUUUACAACUCUGAUUUUCAAACAGAAAAAGUCUUUACAGCUAUAUAGGGGCACCCCAGACGCUGCAGUGACUUCAGCUAUCAACAAACUGUUAACCAUGUACAAUA", "RBNS enrichment (R)": 0.848}
{"Sequence": "CUAGGCAUUAAUACUACUUUACUAUCUAUACUGUUUAGUUAUUCCUUUCUUUACCCACCUAAACUAUCCAUCUAAUCCAGGAUUCCCUCACUCUUUUUUUUUAGUUACUA", "RBNS enrichment (R)": 0.751}
{"Sequence": "UCCCACCGUCCACUCCCCGUCCCCGGGGGCCUGCCCUCAGUCUAAGCUUUGGAACACUCUCACCUCACCUGCCGCCCAAGUCAAAUCUAUUUAUUUUUUUACUGAACCCA", "RBNS enrichment (R)": 0.913}
{"data": "Series 3", "target": "CCND3, cyclin fold, Cln2 fusion (human)", "technique": "yeast growth competition, sequencing", "matrix": "yeast", "setting": "weak parent motif", "baseline": "not given", "reading": "higher = stronger binding", "parent": "MASTL docking peptide (human); PMIAKNLMCELDE"}
{"Change": "L11P", "normalised enrichment score": -0.134}
{"Change": "A4N", "normalised enrichment score": 0.59}
{"Change": "E10W", "normalised enrichment score": 0.0121}
{"Change": "C9A", "normalised enrichment score": 0.18}
{"Change": "M2Q", "normalised enrichment score": 0.0353}
{"Change": "M8Y", "normalised enrichment score": -0.177}
{"Change": "K5Q", "normalised enrichment score": -0.14}
{"Change": "L7H", "normalised enrichment score": -1.06}
{"Change": "N6F", "normalised enrichment score": -0.178}
{"data": "Mixed results"}
{"Substance": "PhoQ, residues 284 288 289 292 302 303 NLMGRA", "target": "PhoP, residues 12 14 15 18 19 LHTVM (Escherichia coli, UniProt P23836)", "assay": "Sort-seq, refers to: YFP reporter", "system": "E. coli", "setting": "PhoQ-PhoP variant library, together with: 10 µM Mg2+", "scale": "baseline: high Mg2+ state, higher = stronger signaling", "quantity": "fold induction", "result": 13.2}
{"note": "Repeated from above (series 2):"}
{"Sequence": "CACACAAUUGGAUAGUGACAUAGCUAGAGCGCAGAGUUCCUGAUUCCAAGUCACCUGUGCUUUCUGGGACCAAAGAAUGGGCACCUGCUGGAGUCCGGGCAGAGCUUUCU", "RBNS enrichment (R)": 0.326}
{"Sequence": "UUCCACAUUACAAGUUGAUGUUAUAGGUGGGGGCUGGAAUUGUUGCCCUGGAUGUGGGGACCAAGGUACAAUCUAACCAUGGGCCCCCACAAGGCUUCCUGAAAUCAAAU", "RBNS enrichment (R)": 1.45}
